Measured values gathered from unrelated publications.
Parts stem from different laboratories: compare values within a part only. Changes are numbered by the printed parent chain.

Block 1 — method: RNA Bind-n-Seq; molecule type: RNA; matrix: in vitro; concentration: 15 pmol; setting: 4-mer, random 30-nt RNA, single round; with: 3 µM DMDA-PatA, 2 mM AMP-PNP; baseline: input library; reading: higher = stronger binding
Target: Eukaryotic initiation factor 4A-I (EIF4A1, Homo sapiens, UniProt P60842, residues 1-406, full length assumed)
Sequence of UniProt P60842 (whole entry, looked up): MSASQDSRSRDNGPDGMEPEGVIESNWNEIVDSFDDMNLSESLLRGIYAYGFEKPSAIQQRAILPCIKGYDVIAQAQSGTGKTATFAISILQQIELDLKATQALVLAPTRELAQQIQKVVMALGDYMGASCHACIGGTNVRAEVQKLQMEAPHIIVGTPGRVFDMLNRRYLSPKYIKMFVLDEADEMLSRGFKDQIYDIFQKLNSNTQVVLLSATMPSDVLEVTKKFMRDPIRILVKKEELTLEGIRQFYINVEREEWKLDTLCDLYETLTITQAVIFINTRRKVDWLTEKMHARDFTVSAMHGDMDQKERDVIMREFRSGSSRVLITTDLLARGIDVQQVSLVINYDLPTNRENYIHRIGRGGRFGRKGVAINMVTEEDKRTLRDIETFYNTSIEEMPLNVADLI
The 4-mer enrichment of `UGAG` is reported as 1.11 fold.
With `AGAA` the 4-mer enrichment was 0.916 fold.
`GGAA` gave a 4-mer enrichment of 1.03 fold.
The 4-mer enrichment of `AGCC` is reported as 0.613 fold.
`UGGU` has a 4-mer enrichment of 1.27 fold.
With `GAGA` the 4-mer enrichment was 1.27 fold.
For `UACG`, the 4-mer enrichment was 1.05 fold.
`UCUC` gave a 4-mer enrichment of 0.64 fold.
The 4-mer enrichment of `CACC` is reported as 0.376 fold.
For `GUGU`, the 4-mer enrichment was 1.71 fold.
`UAUA` has a 4-mer enrichment of 1.4 fold.
The 4-mer enrichment of `UAGG` is reported as 1.59 fold.
With `UUUG` the 4-mer enrichment was 1.36 fold.
`AGAC` gave a 4-mer enrichment of 0.913 fold.
For `AGCA`, the 4-mer enrichment was 0.595 fold.
The 4-mer enrichment of `AUUC` is reported as 0.799 fold.

Block 2 — method: DHFR PCA, dose-response; matrix: yeast; with: (+)-ABA, dose series; reading: lower = more sensitive
Target: ABI1, truncated, D143A, DHFR fusion (Arabidopsis thaliana, UniProt P49597)
Setting: Hill fit, not affinity, not high confidence
Parent: PYL1, truncated, DHFR fusion (Arabidopsis thaliana, UniProt Q8VZS8); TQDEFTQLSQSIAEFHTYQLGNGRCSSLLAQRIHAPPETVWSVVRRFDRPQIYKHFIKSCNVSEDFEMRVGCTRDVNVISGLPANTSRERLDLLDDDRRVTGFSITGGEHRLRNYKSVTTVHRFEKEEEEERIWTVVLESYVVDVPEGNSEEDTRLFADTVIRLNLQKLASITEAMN
For `W41T`, the ABA EC50 was 0.458 µM.
For `P50T`, the ABA EC50 was 0.534 µM.
`L166A` gave an ABA EC50 of 859 µM.
For `L169P`, the ABA EC50 was 1.85 µM.
`L166W` gave an ABA EC50 of 46.6 µM.
`H110D` gave an ABA EC50 of 1.07 µM.
The ABA EC50 of `W41E` is reported as 21.9 µM.
`W41S` has an ABA EC50 of 1.95 µM.
The ABA EC50 of `L164P` is reported as 824 µM.
The ABA EC50 of `Y115T` is reported as 8.88 µM.
With `E89L` the ABA EC50 was 2.64 µM.
With `S87N` the ABA EC50 was 0.0744 µM.
For `I162R`, the ABA EC50 was 906 µM.
`R74E` has an ABA EC50 of 15.7 µM.
With `S117E` the ABA EC50 was 2150 µM.
`I33Y` gave an ABA EC50 of 642 µM.

Block 3 — method: protein-binding microarray; molecule type: double-stranded DNA, one strand shown; matrix: in vitro; concentration: 2540 nM top; setting: 60-bp whole probe; with: salmon DNA 0.4 mg/ml; baseline: random background probes; reading: higher = stronger binding; constant ends, left off below: GCCTAGCAC … GTCTTGATTCGCTTGACGCTGCTG
Target: Interferon regulatory factor 3, full length, phosphomimetic (IRF3, Homo sapiens, UniProt Q14653, residues 1-427, S386D/S396D/S398D/S402D/T404D/S405D)
Sequence of UniProt Q14653 (whole entry, unmodified, looked up): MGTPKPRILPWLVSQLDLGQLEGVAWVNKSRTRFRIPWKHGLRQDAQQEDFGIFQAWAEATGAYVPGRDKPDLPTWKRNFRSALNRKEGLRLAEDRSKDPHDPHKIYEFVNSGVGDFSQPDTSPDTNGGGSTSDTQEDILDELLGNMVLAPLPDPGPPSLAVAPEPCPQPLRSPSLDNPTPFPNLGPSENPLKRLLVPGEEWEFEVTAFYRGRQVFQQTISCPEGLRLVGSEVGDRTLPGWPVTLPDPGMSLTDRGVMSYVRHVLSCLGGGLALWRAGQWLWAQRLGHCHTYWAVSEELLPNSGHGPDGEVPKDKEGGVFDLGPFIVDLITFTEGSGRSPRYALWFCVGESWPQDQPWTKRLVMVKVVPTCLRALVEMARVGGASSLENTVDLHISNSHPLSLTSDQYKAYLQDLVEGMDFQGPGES
Under “fitted relative affinity”, `GACCGTATCCTTTTCCTGACGTGCTAG` is recorded as 6.95 z-score.
Under “fitted relative affinity”, `TTAGGACTGGACTTTCGGATAGTGCTA` is recorded as 0.528 z-score.
For `TCATATATTATATATACAACTGTGCTA`, “fitted relative affinity” read 0.714 z-score.
`CTGAGGCTGCCGTGGCCATGGTGCTAG`: “fitted relative affinity” -1.25 z-score.
For `GACGGTTTCCTTATCCTGCCGTGCTAG`, “fitted relative affinity” read 7.87 z-score.
`GACTGACTGGACACTGGGGACGTGCTA` — result for “fitted relative affinity”: -0.678 z-score.
Under “fitted relative affinity”, `GTAGGTTTCCTTATCCTTTAGTGCTAG` is recorded as 8.47 z-score.
For `TTAGGACTGGGGAGTGGGTTAGTGCTA`, “fitted relative affinity” read -0.921 z-score.
For `GACGGTCTCCTTATCTTGACGTGCTAG`, “fitted relative affinity” read 2.36 z-score.
For `GTCGGTTTCGGGTTTCGGGACGTGCTA`, “fitted relative affinity” read 7.29 z-score.
For `GCTAGTTCAGTTCTCTAGAAGTGCTAG`, “fitted relative affinity” read 1.16 z-score.
Under “fitted relative affinity”, `GACGATTTCGGGTACCGAGACGTGCTA` is recorded as 1.54 z-score.
`GACGGTCACCTTTTCCTGACGTGCTAG`: “fitted relative affinity” 2.16 z-score.
For `TTAGATCTCAGTTTTGATTAGTGCTAG`, “fitted relative affinity” read 1.05 z-score.
Under “fitted relative affinity”, `GACGGACTGGGGTAACGGGACGTGCTA` is recorded as -0.938 z-score.
`GACGGTATCAGACTGGAGACGTGCTAG`: “fitted relative affinity” 1.49 z-score.
For `TCTTCTGGTGTGTCTGAAGAGTGCTAG`, “fitted relative affinity” read 0.382 z-score.
Under “fitted relative affinity”, `TTAGGTTTCTGTTCCGGTTAGTGCTAG` is recorded as 6.9 z-score.
Under “fitted relative affinity”, `TCAATCTTCATTGTCATACTGTGCTAG` is recorded as 0.76 z-score.
`TTAGGTCACCTACTGCTTTAGTGCTAG` — result for “fitted relative affinity”: 0.311 z-score.
`TTAGAACTGAGTATCAATTAGTGCTAG` — result for “fitted relative affinity”: -0.0693 z-score.
`GACGGTTTCGACTATCGGGTCGTGCTA` — result for “fitted relative affinity”: 3.03 z-score.
For `TCATTATTCTAGCCTCCAACTGTGCTA`, “fitted relative affinity” read 0.692 z-score.
Under “fitted relative affinity”, `TTCGGTATCGGTCTCGGTTAGTGCTAG` is recorded as 4.9 z-score.
For `TTAGGTCTCCTTTCCCTTTAGTGCTAG`, “fitted relative affinity” read 5.33 z-score.

Block 4 — target: CCNF, cyclin fold, Cln2 fusion (human); method: yeast growth competition, sequencing; matrix: yeast; setting: strong parent motif; baseline: not given; reading: higher = stronger binding
Parent: PKN2 docking peptide (human); VSAVRKLDFSDTM
Under “normalised enrichment score”, `VSAVRKLDFMDTM [S10M]` is recorded as 7.25.
Under “normalised enrichment score”, `VSAVRKLDFSDWM [T12W]` is recorded as 7.23.
For `VSAVRKLDFSMTM [D11M]`, “normalised enrichment score” read 7.53.
Under “normalised enrichment score”, `VSQVRKLDFSDTM [A3Q]` is recorded as 4.89.
Under “normalised enrichment score”, `VSALRKLDFSDTM [V4L]` is recorded as 6.29.
`VSAVRKLIFSDTM [D8I]`: “normalised enrichment score” 8.35.
Under “normalised enrichment score”, `VSAVRKIDFSDTM [L7I]` is recorded as 5.99.
`VAAVRKLDFSDTM [S2A]` — result for “normalised enrichment score”: 7.18.
Under “normalised enrichment score”, `VSAVRKLDFSHTM [D11H]` is recorded as 7.02.
`VSAVRFLDFSDTM [K6F]` — result for “normalised enrichment score”: 6.57.
Under “normalised enrichment score”, `VSAVRKLDQSDTM [F9Q]` is recorded as 0.123.
`VSAFRKLDFSDTM [V4F]` — result for “normalised enrichment score”: 6.37.
For `VSAVRKADFSDTM [L7A]`, “normalised enrichment score” read -0.0748.
Under “normalised enrichment score”, `VSAQRKLDFSDTM [V4Q]` is recorded as 7.69.
`VSAVRKLDSSDTM [F9S]`: “normalised enrichment score” 0.142.
`VSAVRYLDFSDTM [K6Y]`: “normalised enrichment score” 6.66.
Under “normalised enrichment score”, `VSAVRKLDFSDMM [T12M]` is recorded as 6.86.
`VSAVRKMDFSDTM [L7M]`: “normalised enrichment score” 0.386.
For `VSAVRKLDFGDTM [S10G]`, “normalised enrichment score” read 7.24.
`VSAVRKLFFSDTM [D8F]` — result for “normalised enrichment score”: 8.71.
